Results gathered from unrelated publications.
Lines come from different studies, so protocols differ. Values after ≈ are worked out from the molar mass of the structure shown.
Organism: Mycolicibacterium smegmatis

| Compound | test | test system | setting | measurement | value |
| --- | --- | --- | --- | --- | --- |
| CN[C@@H]1[C@H](O)[C@H](NC)[C@H]2O[C@]3(O)[C@H](O[C@@H]2[C@H]1O)O[C@H](C)C[C@H]3NC(=O)Cc1ccc(F)cn1 | – | – | – | MIC | 12.5 to 25 mg/L |
| Cc1ccc2nc(C)c(C(=O)C(=O)NCc3ccccc3)n2c1 | microbial growth | MC2155 | 2 mM, 20 h | inhibition zone | 0 mm |
| CC(C)[C@H]1NC(=O)[C@H](Cc2ccccc2)NC(=O)[C@@H](C(C)C)NC(=O)[C@@H](C)NC(=O)[C@H](CO)NC(=O)[C@@H](Cc2c(-c3ccc(-c4cccc5ccccc45)cc3)[nH]c3ccccc23)NC(=O)[C@@H](CO)NC1=O | – | – | – | MIC90 | > 100 µM |
| Cc1ccc2nc(C)c(C(=O)NCc3ccccc3)n2c1 | microbial growth, broth dilution | – | – | MIC | > 128 µM |
| NC1=NC2(CCCCC2)N(c2ccc(OCc3cn(CCCCOc4ccc(CCC(=O)O)c(O)c4)nn3)cc2)C(N)=N1 | microbial growth | ATCC700084 MC2155 | – | MIC50 | 0.7 µM (≈ 0.413 µg/mL) |
| CC(C)[C@H]1NC(=O)[C@H](Cc2ccccc2)NC(=O)[C@@H](C(C)C)NC(=O)[C@@H](C)NC(=O)[C@H](CO)NC(=O)[C@@H](Cc2c(-c3ccc(-c4ccccc4)c(F)c3)[nH]c3ccccc23)NC(=O)[C@@H](CO)NC1=O | – | – | – | MIC90 | > 100 µM |
| CCc1ccn2c(C(=O)NCc3ccc(C)cc3)c(C)nc2c1 | microbial growth | MC2155 | 2 mM | inhibition zone | 0 mm |
| CCc1nc2ccc(Br)cn2c1C(=O)NCc1ccc2oc(-c3ccc(Cl)cc3)nc2c1 | – | – | – | MIC90 | > 100 µM |
| CC(C)[C@H]1NC(=O)[C@H](Cc2ccccc2)NC(=O)[C@@H](C(C)C)NC(=O)[C@@H](C)NC(=O)[C@H](CO)NC(=O)[C@@H](Cc2c(-c3ccc(-c4ccc(-c5ccccc5)cc4)cc3)[nH]c3ccccc23)NC(=O)[C@@H](CO)NC1=O | – | – | – | MIC90 | > 100 µM |
| Cc1nc2cc(C(F)(F)F)ccn2c1C(=O)NCc1ccc2oc(-c3ccc(Cl)cc3)nc2c1 | – | – | – | MIC90 | > 100 µM |
| CCc1ccn2c(C(=O)N(C)C)c(C)nc2c1 | microbial growth | MC2155 | 2 mM, 20 h | inhibition zone | 0 mm |
| CCc1nc2ccc(Cl)cn2c1C(=O)NCc1ccc2oc(-c3ccc(OC(F)(F)F)cc3)nc2c1 | – | – | – | MIC90 | > 100 µM |
| CC(C)[C@H]1NC(=O)CNC(=O)[C@H](CO)NC(=O)[C@@H](Cc2c(-c3ccc(-c4ccc5ccccc5c4)cc3)[nH]c3ccccc23)NC(=O)[C@@H](CO)NC(=O)[C@@H](C(C)C)NC(=O)[C@H](Cc2ccccc2)NC1=O | – | – | – | MIC90 | > 100 µM |
| CCc1nc2cc(Br)ccn2c1C(=O)NCc1ccc2oc(-c3ccc(OC(F)(F)F)cc3)nc2c1 | – | – | – | MIC90 | > 100 µM |
| Cc1ccc2nc(C)c(C(=O)C(=O)N(C)C)n2c1 | microbial growth, broth dilution | – | – | MIC | > 128 µM |
| CC(C)[C@H]1NC(=O)[C@H](Cc2ccccc2)NC(=O)[C@@H](C(C)C)NC(=O)[C@@H](C)NC(=O)[C@H](C)NC(=O)[C@@H](Cc2c(-c3ccc(-c4ccc(-c5ccccc5)cc4)cc3)[nH]c3ccccc23)NC(=O)[C@@H](CO)NC1=O | – | – | – | MIC90 | > 100 µM |
| CCc1nc2ccc(C(F)(F)F)cn2c1C(=O)NCc1ccc2oc(-c3ccc(Cl)cc3)nc2c1 | – | – | – | MIC90 | > 100 µM |
